Measurements collected from several papers.
Compare with care: the assays were run in different laboratories.
Organism: Acinetobacter baumannii

For `O=[N+]([O-])c1ccc2[nH]c(CNCC34CC5CC(CC(C5)C3)C4)nc2c1`, the MIC was over 128 µg/mL (ATCC 17961).
`O=C(N[C@H](CO)[C@H](O)c1ccc([N+](=O)[O-])cc1)C(Cl)Cl` gave an MIC of 64 µg/mL (broth microdilution; NCTC 13424; 20 h, 5% CO2).
`NCCCC[C@H](NC(=O)[C@H](Cc1ccccc1)NC(=O)[C@H](CCC(N)=O)NC(=O)[C@H](Cc1ccccc1)NC(=O)[C@H](CCC(N)=O)NC(=O)[C@@H](N)Cc1ccccc1)C(N)=O` gave an MIC of 2080 µM (broth microdilution, optical density).
The MIC of `Cc1cc(Nc2ccc(S(F)(F)(F)(F)F)cc2)n2ccnc2n1` is reported as 1.09 µg/mL (TMH1 clinical isolate).
`Cc1c(CN(C)C(=O)/C=C/c2cnc3c(c2)CCC(=O)N3)oc2ccccc12` gave an MIC of over 32 µg/mL (broth microdilution; KB304).
The MIC of `C[C@H]1COc2c(N3CCN(C)CC3)c(F)cc3c(=O)c(C(=O)O)cn1c23` is reported as 0.25 µg/mL (agar dilution; ATCC 19606).
The MIC of `CCn1cc(C(=O)O)c(=O)c2ccc(C)nc21` is reported as 20 µM (broth microdilution; ATCC 17978).
`CO/N=C(\C(=O)N[C@@H]1C(=O)N2C(C(=O)O)=CCS[C@H]12)c1csc(N)n1` gave an MIC of 4 µg/mL (broth microdilution; BNCC 194496).
The MIC of `C[C@@H](O)[C@H]1C(=O)N2C(C(=O)O)=C(S[C@@H]3CN[C@H](C(=O)N(C)C)C3)[C@H](C)[C@H]12` is reported as 8 µg/mL (HR2 clinical isolate).
The MIC of `Cc1c(CN(C)C(=O)/C=C/c2cnc3c(c2)CC(NC(=O)OC(C)(C)C)C(=O)N3)oc2ccccc12` (stereo not shown) is reported as over 32 µg/mL (broth microdilution; AR-0288).
With `O=[N+]([O-])c1ccc(O)c2ncccc12` the MIC was 1.56 µM (19606).
`O=C(N[C@H](CO)[C@H](O)c1ccc([N+](=O)[O-])cc1)C(Cl)Cl` gave an MIC of 80 µM (broth microdilution; ATCC 17978).
`CO/N=C(\C(=O)N[C@@H]1C(=O)N2C(C(=O)O)=C(COC(C)=O)CS[C@H]12)c1csc(N)n1` has an MIC of over 400 µM (broth microdilution; 24 h, 37 °C, clinical isolate).
`CC(C)(O/N=C(\C(=O)N[C@@H]1C(=O)N2C(C(=O)[O-])=C(C[n+]3ccccc3)CS[C@H]12)c1csc(N)n1)C(=O)O` has an MIC of 5 µM (broth microdilution; ATCC 17978).
With `NC[C@H]1O[C@H](O[C@H]2[C@H](O)[C@@H](O[C@H]3O[C@H](CO)[C@@H](O)[C@H](N)[C@H]3O)[C@H](N)C[C@@H]2N)[C@H](N)C[C@@H]1O` the MIC was over 512 µg/mL (broth microdilution; NCTC 13424; 20 h, ambient air).
`C[C@@H](O)[C@H]1C(=O)N2C(C(=O)O)=C(S[C@@H]3CN[C@H](C(=O)N(C)C)C3)[C@H](C)[C@H]12` has an MIC of 48 µg/mL (3A1).
`COc1ccc2ccc(O)c(/C=N/[C@H]3CCCC[C@H]3/N=C/c3c(O)cccc3F)c2c1` gave an MIC of over 40 µM (bacterial growth, broth microdilution; carbapenem-resistant clinical isolate).
For `Cc1c(CN(C)C(=O)/C=C/c2cnc3c(c2)CC(CCN)C(=O)N3)oc2ccccc12.Cl` (stereo not shown), the MIC was 16 µg/mL (broth microdilution; W41979).
With `NC[C@H]1O[C@H](O[C@H]2[C@H](O)[C@@H](O[C@H]3O[C@H](CO)[C@@H](O)[C@H](N)[C@H]3O)[C@H](N)C[C@@H]2N)[C@H](N)C[C@@H]1O` the MIC was over 200 µM (broth microdilution; clinical isolate).
`CN(C)c1ccc2nc3ccc(=[N+](C)C)cc-3sc2c1` gave an MIC of over 128 µM (ATCC BAA-1797, resistant; 18 h, 37 °C, LED light 10 min, 1.57 mW).
`C[C@@H](O)[C@H]1C(=O)N2C(C(=O)O)=C(S[C@@H]3CN[C@H](C(=O)N(C)C)C3)[C@H](C)[C@H]12` gave an MIC of 1.3 µM (broth microdilution; ATCC 17978).
The MIC of `CC1(C)S[C@@H]2[C@H](NC(=O)C(C(=O)O)c3ccccc3)C(=O)N2[C@H]1C(=O)O` (stereo partly shown) is reported as over 200 µM (broth microdilution; clinical isolate).
With `CC1(C)S[C@@H]2[C@H](NC(=O)[C@H](N)c3ccccc3)C(=O)N2[C@H]1C(=O)O` the MIC was over 128 µM (ATCC BAA-1797, resistant; 18 h, 37 °C, LED light 10 min, 1.57 mW).
The MIC of `CC(NCCC(c1ccccc1)c1ccccc1)c1ccccc1` (stereo not shown) is reported as 8 µg/mL (broth microdilution; ATCC 17978).
For `Cc1cc(NS(=O)(=O)c2ccc(N)cc2)no1`, the MIC was over 512 µg/mL (broth microdilution; NCTC 13424; 20 h, 5% CO2).
`C[C@@H](O)[C@H]1C(=O)N2C(C(=O)O)=C(S[C@@H]3CN[C@H](C(=O)N(C)C)C3)[C@H](C)[C@H]12` gave an MIC of under 0.5 µg/mL (broth microdilution; A1 clinical isolate; 20 h).
`CNC(C)C1CCC(N)C(OC2C(N)CC(N)C(OC3OCC(C)(O)C(NC)C3O)C2O)O1` (stereo not shown) has an MIC of over 512 µg/mL (broth microdilution; NCTC 13424; 20 h, 5% CO2).
`CC[C@H]1OC(=O)[C@H](C)[C@@H](O[C@H]2C[C@@](C)(OC)[C@@H](O)[C@H](C)O2)[C@H](C)[C@@H](O[C@@H]2O[C@H](C)C[C@H](N(C)C)[C@H]2O)[C@](C)(O)C[C@@H](C)C(=O)[C@H](C)[C@@H](O)[C@]1(C)O` gave an MIC of 20 µM (broth microdilution; ATCC 17978).
For `CC[C@H](C)CCCCC(=O)N[C@@H](CCN)C(=O)N[C@H](C(=O)N[C@@H](CCN)C(=O)N[C@H]1CCNC(=O)[C@H]([C@@H](C)O)NC(=O)[C@H](CCN)NC(=O)[C@H](CCN)NC(=O)[C@H](CC(C)C)NC(=O)[C@@H](Cc2ccccc2)NC(=O)[C@H](CCN)NC1=O)[C@@H](C)O`, the MIC was 0.5 µg/mL (ATCC 17978, CAMHB; 20 h, 37 °C).
`C[C@H]1COc2c(N3CCN(C)CC3)c(F)cc3c(=O)c(C(=O)O)cn1c23` has an MIC of 32 µg/mL (broth microdilution; NCTC 13424; 20 h, ambient air).
`CC[C@H](C)CCCCC(=O)N[C@@H](CCN)C(=O)N[C@H](C(=O)N[C@@H](CCN)C(=O)N[C@H]1CCNC(=O)[C@H]([C@@H](C)O)NC(=O)[C@H](CCN)NC(=O)[C@H](CCN)NC(=O)[C@H](CC(C)C)NC(=O)[C@@H](CC(C)C)NC(=O)[C@H](CCN)NC1=O)[C@@H](C)O` gave an MIC of 0.107 µM (broth microdilution; BAA-747).
With `CCC[C@@H]1C[C@@H](C(=O)N[C@@H]([C@H]2O[C@H](SC)[C@H](O)[C@@H](O)[C@H]2O)[C@H](C)Cl)N(C)C1` the MIC was 320 µM (broth microdilution; ATCC 17978).
The MIC of `CN(C)[C@@H]1C(O)=C(C(N)=O)C(=O)[C@@]2(O)C(O)=C3C(=O)c4c(O)cccc4[C@@](C)(O)[C@H]3C[C@@H]12` is reported as 2 µg/mL (broth microdilution; BNCC 194496).
`CCc1c(Cl)c(O)c(Cl)c(O)c1C(=O)O[C@H]1[C@H](O)[C@H](OC)[C@H](OC/C2=C\C=C\C[C@H](O)/C(C)=C/[C@H](CC)[C@@H](O[C@@H]3OC(C)(C)[C@@H](OC(=O)C(C)C)[C@H](O)[C@@H]3O)/C(C)=C/C(C)=C/C[C@@H]([C@@H](C)O)OC2=O)O[C@@H]1C` has an MIC of 320 µM (broth microdilution; ATCC 17978).
`c1ccc2[nH]c(CNCC34CC5CC(CC(C5)C3)C4)nc2c1` has an MIC of over 128 µg/mL (ATCC 17961).
For `CN(C)c1ccc(O)c2c1C[C@H]1C[C@H]3[C@H](N(C)C)C(O)=C(C(N)=O)C(=O)[C@@]3(O)C(O)=C1C2=O`, the MIC was 4 µg/mL (broth microdilution; NCTC 13424; 20 h, ambient air).
`CCO/N=C(\C(=O)N[C@@H]1C(=O)N2C(C(=O)[O-])=C(Sc3nc(-c4cc[n+](C)cc4)cs3)CS[C@H]12)c1nsc(NP(=O)(O)O)n1` gave an MIC of 12.5 µM (broth microdilution; Mueller-Hinton broth; 24 h, 37 °C).

Repeated from above:
`CO/N=C(\C(=O)N[C@@H]1C(=O)N2C(C(=O)O)=CCS[C@H]12)c1csc(N)n1` gave an MIC of 4 µg/mL (broth microdilution; BNCC 194496).
`C[C@@H](O)[C@H]1C(=O)N2C(C(=O)O)=C(S[C@@H]3CN[C@H](C(=O)N(C)C)C3)[C@H](C)[C@H]12` has an MIC of 48 µg/mL (3A1).
With `CCC[C@@H]1C[C@@H](C(=O)N[C@@H]([C@H]2O[C@H](SC)[C@H](O)[C@@H](O)[C@H]2O)[C@H](C)Cl)N(C)C1` the MIC was 320 µM (broth microdilution; ATCC 17978).
